Measured values of several laboratories.
Every numbered part comes from another study and shows a few of its results, in no order.

Study 1
Target: Histone acetyltransferase KAT6A, both winged helices, GST fusion (KAT6A, Homo sapiens, UniProt Q92794, residues 1-181)
Method: protein binding microarray
Form: double-stranded DNA, one strand shown
Medium: in vitro
Concentration: not given
Setting: 8-mer, flanks averaged, mean of 2 arrays, mostly near background
Relative to: not given
Reading: higher = stronger binding
Construct (chain): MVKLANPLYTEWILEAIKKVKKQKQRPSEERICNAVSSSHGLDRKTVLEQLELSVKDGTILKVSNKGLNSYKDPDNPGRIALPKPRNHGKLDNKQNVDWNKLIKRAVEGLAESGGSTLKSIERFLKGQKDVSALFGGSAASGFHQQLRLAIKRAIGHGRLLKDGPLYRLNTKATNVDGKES
Strand | E-score
CGGCATAC | 0.284
ATGTATGA | 0.0722
ACAGTCAA | -0.183
ACGGTCTG | 0.0874
GTTCATAA | -0.119
CAACATTC | -0.0852
CCATATCC | -0.023
GAATAAAA | 0.0451
AGTTAGTA | -0.0653
GCCGCCGC | 0.383
CCATCTAC | -0.00471
AATGTACA | -0.0505
CCGCGACC | 0.206
CCTCACGC | 0.0938
TAGACGGA | 0.234
AGAGTGCA | -0.15
CGGTGAGA | 0.0189
GAAACTCA | -0.0722
AGCTCTTA | 0.0388
ACGATTCA | -0.0294
GGTGTTAC | -0.0659
AAGCGAAC | 0.0983
GGGGAGCA | -0.128
CGTGACGC | 0.235
TCTCGGCA | 0.178

Study 2
Target: RNA binding protein fox-1 homolog 2, RRM domain, GST-SBP tag (RBFOX2, Homo sapiens, UniProt O43251-10, residues 100-194)
Method: RNA Bind-n-Seq
Form: RNA
Medium: in vitro
Concentration: 365 nM
Setting: natural RNA segment, single round, ends assumed
Relative to: no-protein control
Reading: higher = stronger binding
Constant ends, left off below: GGGAGUUCUACAGUCCGACGAUC … UGGAAUUCUCGGGUGCCAA
Construct (chain): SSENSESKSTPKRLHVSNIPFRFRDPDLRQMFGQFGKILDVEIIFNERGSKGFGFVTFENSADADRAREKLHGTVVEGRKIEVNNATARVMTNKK
Strand | RBNS enrichment (R)
AAUCUCUAUCCUCGUGUGCUUCAAGCUCUAUAACAACCAUAUCAUGAGGUAUUUGCAAAGGAAAACAUUUUCUCCCAUGAUUUGUUUUUUGUUGUUAUUGUUGUUGGGUU | 0.406
CUGUUCCCAGGAUCACGAGAAACAAGCUCUCCUGAGCUGCUAGAACCCUGCCUGACCUCCUUUGCAGUCAUCAUCUGUCUUUUCUUGGCGUGGGUGCUCACCUCACUUAU | 0.553
CAGGGACACCAAGGCCAAUGGGUUAUCUGGACCAAAGGUGGGGUGGAGGGCCUAGGUGGUAUCUCCGGCCCAGAUGUGAAUACCUCCAUAUUCCCUGUUGGUUCCUGUUU | 0.231
UGCACUUUUGUGGGUCGCAAGGUGAUACAUACGUGUAUUACUUGGUCACUGGAUGCAGAAGUACCCAUUCAUCACACCUGCCCCAUAGCCCCCACUCUGCUGUACUGAUA | 0.231
CCACUCCACCACUGUCCCUGGGGGCUUUUCAGCUCCCCCAGCCCUCAGCUUCUGGACCCCAGGCUUCACCCUCAGAUUGCUGCCAGUCUUCUGCAAGCCUUUCUAGCUUU | 0.527
AGAAUCCGCAUGUUUCCCCAGUGAUUACACUCCACUGCCACCGUGGUGCCUGGCUUUAACUCCCACCCCUGCUAUGACUCCUCUCUGCAGAGACGCGACUGGCGGCUCCA | 4.62
CUGGCUGUCAGUGACCAUGUGGGCAUUGAGGCUGGUCCCAGAGAUGCUCGAAAGUCAGUGAAAGCUAUGCCUUCUCAUGCUAGCCCAGCCCAGCCCACCCUGCGACUGGU | 0.362
GAGGUUUCCAUUUUUAUUUAAAUUACUAAUGGAUCAAAGAACAAUUGUUUAUUUUUUCUCUUUGGUUUUAGAUAUUAAUGAUAACCUUGUUGGAAUUUUUUUUCCAAAGA | 0.485

Study 3
Target: RING finger protein unkempt homolog, zinc fingers 1-6, GST-SBP tag (UNK, Homo sapiens, UniProt Q9C0B0, residues 30-357)
Method: RNA Bind-n-Seq
Form: RNA
Medium: in vitro
Concentration: not given
Setting: RNA with constant flanks, human and mouse sites, ends assumed
Relative to: input RNA pool
Reading: higher = stronger binding
Constant ends, left off below: GGGAGUUCUACAGUCCGACGAUC … CAACAGAGGAUUGAGCAUCA
Construct (chain): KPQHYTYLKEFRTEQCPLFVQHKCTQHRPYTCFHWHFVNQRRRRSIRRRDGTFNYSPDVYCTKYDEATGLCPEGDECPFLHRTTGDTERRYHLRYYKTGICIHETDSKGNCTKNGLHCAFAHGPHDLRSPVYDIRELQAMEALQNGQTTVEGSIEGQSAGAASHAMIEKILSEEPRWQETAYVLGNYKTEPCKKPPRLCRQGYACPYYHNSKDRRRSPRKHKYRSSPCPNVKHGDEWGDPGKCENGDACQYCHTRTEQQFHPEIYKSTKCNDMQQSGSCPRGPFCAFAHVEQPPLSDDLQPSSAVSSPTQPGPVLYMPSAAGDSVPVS
Strand | bound/input enrichment
UGCAGCCGAGCGGGCCCGUUCCGCCGGAGCUGAGGACCAGGUAUUCAAAUAAAGUUAAUUGCAGCUUUCUGUGAAAAUGUCAGUUUUGAUAUCACAGAGCGUCAUAAAUUAUGUAGAGGA | 0.285 ratio
AUGAACCUACAAAUAGUUGACAGAGCCAUUCAGGUAGUUCGAAGUGCUUUAGCUAACCAGAUAGAUUGGACAGAAAUUGGGUUAAUUGUGAAAGAAGCCCAGGCUCAAGGAGACCCUGUU | 0.399 ratio
CGGGUUCCUCGGGGAGAAAUUCUCUGGAGUCAUCUGGAACUUCUCCGAAAAUAUGUAUUGGCAAGUCAAGAACAACAGAUGAAUGAAAUAGUUACAAUUGAUCAACCUGUGCAAAUUAUU | 0.376 ratio
UUGCAUGGAGACAUUCCACAGAAGCAAAGGGAAAUCACCCUGAAAGGUUUUAGAAAUGGUAGUUUUGGAGUUUUGGUGGCAACCAAUGUUGCUGCACGUGGGUUAGACAUCCCUGAGGUU | 1.26 ratio
CUCACGGACUGGACGAUCUUUCCACUGGACACUGAGGAUGCAGUGUGCAGCCACCUGGGGGGCUGGGGACACCGUGACAGUGGCCACCAUGAUGAAGCCUGGGCCCACAACUCAUCCAAC | 0.151 ratio
UCAACGGAUCCCUCCCCGCCUCCAUCCUCGUUCUGUGGGAGAGACCAGCCUUCUGGUGCUGCAGUCAGGAAUGGAGCUUGACAGCGCUCUGGAAGCCCCAUCGCAGGAAGACUCUAAUUU | 0.0817 ratio
GAUUGUUUCAUUAUUUAUCAAGGACAUCAUGGUGAUGUUGGGGCUCCCAUAGCUGAUGUUAUUCUCCCAGGAGCUGCUUACACAGAGAAGUCUGCUACAUAUGUCAACACUGAGGGUAGA | 0.361 ratio
GCUGUGCUGGGUUAACAGCUUCCUUCCCUUUCUGUGUAGCAGUCUUGAAAUGUUCUGUUUAAAUCAGUAGGCUUAAUGUGUUCUGGGUAUUUAUCUCCUUGUAUUUUAAAUAUAUGUAGU | 1.05 ratio

Study 4
Target: Prothrombin, mature alpha-thrombin (F2, Homo sapiens, UniProt P00734)
Method: aptamer microarray, sandwich
Form: DNA with 2'F-ANA
Medium: in vitro
Concentration: 200 nM
Setting: whole 15-mer aptamer, many near background
With: Cy3 exosite-II aptamer, 400 nM
Reading: higher = stronger binding
Strand: GGTTGGTGTGGTTGG
Modification | mean fluorescence intensity
2'F-ANA at 6 7 10 12 | 237 a.u.
2'F-ANA at 1 2 3 6 7 10 12 14 15 | 57.1 a.u.
2'F-ANA at 1 3 7 8 10 11 12 | 108 a.u.
2'F-ANA at 4 5 6 9 11 13 | 53.2 a.u.
2'F-ANA at 2 6 9 12 13 15 | 455 a.u.
2'F-ANA at 2 4 5 6 9 10 11 12 13 | 65.1 a.u.
2'F-ANA at 1 2 3 4 5 7 8 13 | 61.3 a.u.
2'F-ANA at 2 5 7 9 11 12 14 15 | 48.1 a.u.
2'F-ANA at 5 8 9 10 13 14 | 68 a.u.
2'F-ANA at 7 8 12 15 | 872 a.u.
2'F-ANA at 1 4 5 9 10 13 14 | 43.6 a.u.
2'F-ANA at 1 3 6 7 10 11 15 | 76.5 a.u.
2'F-ANA at 1 7 8 13 15 | 182 a.u.
2'F-ANA at 1 3 7 11 12 13 14 | 135 a.u.
2'F-ANA at 1 4 9 12 14 | 58.2 a.u.
2'F-ANA at 1 3 5 6 7 10 12 14 15 | 48.6 a.u.
2'F-ANA at 1 2 4 6 7 12 | 239 a.u.
2'F-ANA at 2 3 5 6 7 11 12 13 15 | 114 a.u.
2'F-ANA at 1 2 6 9 11 12 15 | 244 a.u.
2'F-ANA at 7 8 10 11 | 174 a.u.
2'F-ANA at 2 4 8 15 | 376 a.u.
2'F-ANA at 3 4 6 7 8 9 10 14 | 206 a.u.
2'F-ANA at 1 5 9 13 14 15 | 46.3 a.u.
2'F-ANA at 2 3 4 5 7 9 11 12 13 15 | 106 a.u.

Study 5
Target: Fragile X messenger ribonucleoprotein 1, C-terminal low-complexity region (Fmr1, Mus musculus, UniProt P35922)
Method: RNA Bind-n-Seq
Form: RNA
Medium: in vitro
Concentration: 200 nM
Setting: whole 134-nt RNA, ends assumed
With: 150 mM LiCl
Relative to: input library
Reading: higher = stronger binding
Each molecule: 7-deaza-guanosine replaces G
Constant ends, left off below: GGGAGUUCUACAGUCCGACGAUC … UGGAAUUCUCGGGUGUCAAGG
Strand | log2 enrichment
UAGCUUUAGAGGAGGAUCUGAUGGAUAUGGCAGUGGACGUGGAUUUGGGGAUGGCUAUAAUGGGUAUGGAGGAGGACCUGGAGGUGGCAA | 0.168
CUCAAGUCCUGUGCUACACAUCGUAUGUACCGAAUCGGGGUGGGGUGGUGGGGAAAGUAUUAUGUUACGCCGUUCGGAUCUGCACUUCCA | -0.399
UCCUGUGCUACACAUCGUAUGUACCGAAUCGGGGUUUUUUUGGGGAGGGGAAAAAGGGGAAAGUAUUAUGUUACGCCGUUCGGAUCUGCA | -0.773
CUCAAGUCCUGUGCUACACAUCGUAUGUACCGAAUCGGAAAGGUUUUUGGAGGAAAGUAUUAUGUUACGCCGUUCGGAUCUGCACUUCCA | -0.622
UGAUCAGCAAAGCCAAGAUGAGCCUUUGAGAAGCAGAAAAGUGUUUGUGGGGCGCUGUACAGAGGACAUGACUGAGGAUGAGCUGCGGGA | -1.98
UGGGAGGUGGAUUUUGUUUAUAUUUUUAGCUCAUUUCCAGGGGUGGGAAUUUUUUUUUAAUAUGUGUCAUGAAUAAAGUUGUUUUUGAAA | -0.113
CACAGACAACACGCACCCAAACAGACACAGAGGGAAGGGGUUGGGAUGGGGACAGGGUGCACAGCAGGGCGGGGUAGGACCCCAGCCCCU | 0.29
UGGCCCUGGUGGCAUGCGGGGAGGAAGAGCUGGCCUCAUGGAUCGUGGUGGUCCCGGUGGAAUGUUCAGAGGUGGCCGUGGUGGAGACAG | -0.0784

For quick reference, copied from above (study 4):
Modification | mean fluorescence intensity
2'F-ANA at 1 2 3 4 5 7 8 13 | 61.3 a.u.
2'F-ANA at 2 5 7 9 11 12 14 15 | 48.1 a.u.
2'F-ANA at 5 8 9 10 13 14 | 68 a.u.
2'F-ANA at 7 8 12 15 | 872 a.u.
2'F-ANA at 1 4 5 9 10 13 14 | 43.6 a.u.
2'F-ANA at 1 3 6 7 10 11 15 | 76.5 a.u.
2'F-ANA at 1 7 8 13 15 | 182 a.u.
